Measurements gathered from unrelated publications.
Numbered parts are unrelated; each lists some results of a single study. Positions count from the first letter of the parent shown.

Sample 1
Target: Ras GTPase-activating protein-binding protein 1, RRM domain (G3BP1, Homo sapiens, UniProt Q13283)
UniProt Q13283, sequence (whole entry, looked up): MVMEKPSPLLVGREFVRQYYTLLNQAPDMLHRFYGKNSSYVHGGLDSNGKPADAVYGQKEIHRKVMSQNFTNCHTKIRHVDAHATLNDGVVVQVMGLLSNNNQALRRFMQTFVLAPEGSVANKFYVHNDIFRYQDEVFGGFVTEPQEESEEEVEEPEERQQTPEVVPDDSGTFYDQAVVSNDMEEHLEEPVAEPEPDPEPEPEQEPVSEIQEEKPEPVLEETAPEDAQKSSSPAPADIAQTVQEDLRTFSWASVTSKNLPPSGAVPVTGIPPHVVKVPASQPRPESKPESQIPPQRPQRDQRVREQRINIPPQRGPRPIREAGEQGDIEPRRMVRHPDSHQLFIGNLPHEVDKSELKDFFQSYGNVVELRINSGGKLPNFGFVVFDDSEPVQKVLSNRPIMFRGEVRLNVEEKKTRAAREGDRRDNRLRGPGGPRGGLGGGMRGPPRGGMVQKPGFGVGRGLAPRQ
Method: RNA Bind-n-Seq
Molecule type: RNA
Matrix: in vitro
Tested at: 1 µM
Setting: whole 134-nt RNA, ends assumed
Together with: 150 mM KCl
Baseline: input library
Direction: higher = stronger binding
All sequences stand within: GGGAGUUCUACAGUCCGACGAUC … UGGAAUUCUCGGGUGUCAAGG
Strand | log2 enrichment
UCCUGUGCUACACAUCGUAUGUACCGAAUCGGAAAAAAGGGAAAAAAGGGGAAAAAAGGGAAAGUAUUAUGUUACGCCGUUCGGAUCUGC | -0.00365
ACCAUGCAGGUGGGCAUCUUUGGGAAGUGGGGCAAGGGGGGGAUAGGGAAGGGGGUAACACUUUGGGAACAGGUGGUCCCAGGUCGUUUC | 1.06
UCUCCCAUCAAAGGACGUGCACAGCCUUAUGAUCCCAAUUUUUACGAUGAAACCUAUGAUUAUGGUGGUUUUACAAUGAUGUUUGAUGAC | 0.0572
CUCAAGUCCUGUGCUACACAUCGUAUGUACCGAAUCGGGCCGGCCGGGCCGGGGAAAGUAUUAUGUUACGCCGUUCGGAUCUGCACUUCC | -0.277
CACAGACAACACGCACCCACAUAGACACAGAGGGAAGGGGUUGGGAUGGGGACAGGGUGCACAGCAGGGCGGGGUAGGACCCCAGCCCCU | 0.142
GUCCUGUGCUACACAUCGUAUGUACCGAAUCGGGUUUGGGAAAAAAAGGGUUUUUGGGAAAGUAUUAUGUUACGCCGUUCGGAUCUGCAC | 0.279
UCAAGUCCUGUGCUACACAUCGUAUGUACCGAAUCGGAAAGGGAAAGGAAAGGGAAAGUAUUAUGUUACGCCGUUCGGAUCUGCACUUCC | -0.142
CUGUGCUACACAUCGUAUGUACCGAAUCGGGGAAAAAAAGGGAAAAAAAGGGGAAAAAAAGGAAAGUAUUAUGUUACGCCGUUCGGAUCU | 0.0594
ACCAUGCAGGUGGGCAUCUUUGGGAAGUGGGGCAAGGGGGCGAUAGGGAGGGGGGUAACACUUUGGGAACAGGUGGUCCCAGGUCGUUUC | 0.922
UGGCCCUGGUGGCAUGCGGGGAGGAAGAGGUGGCCUCAUGGAUCGUGGUGGUCCCGGUGGAGUGUUCAGAGGUGGCCGUGGUGGAGACAG | 0.718
CCUCAAGUCCUGUGCUACACAUCGUAUGUACCGAAUCGGGGUGGUGGGGUGGGAAAGUAUUAUGUUACGCCGUUCGGAUCUGCACUUCCA | 0.149
CCUGUGCUACACAUCGUAUGUACCGAAUCGGGGCCCCCCGGGGCCCCCCGGGCCCCCCGGAAAGUAUUAUGUUACGCCGUUCGGAUCUGC | -0.651
UUACACCAAUGAGAAGCUGCAGCAGCUCUUCAACCACACCAUGUUCAUCCUGGAGCAGGAGGAGUACCAGCGCGAGGGCAUCGAGUGGAA | -0.0044
AAGUCCUGUGCUACACAUCGUAUGUACCGAAUCGGGGUGGGGUUUUUGGGGUGGGGAAAGUAUUAUGUUACGCCGUUCGGAUCUGCACUU | 1.08

Sample 2
Target: RNA binding protein fox-1 homolog 2, RRM domain, GST-SBP tag (RBFOX2, Homo sapiens, UniProt O43251-10, residues 100-194)
Method: RNA Bind-n-Seq
Molecule type: RNA
Matrix: in vitro
Tested at: 365 nM
Setting: natural RNA segment, single round, ends assumed
Baseline: no-protein control
Direction: higher = stronger binding
All sequences stand within: GGGAGUUCUACAGUCCGACGAUC … UGGAAUUCUCGGGUGCCAA
Construct (chain): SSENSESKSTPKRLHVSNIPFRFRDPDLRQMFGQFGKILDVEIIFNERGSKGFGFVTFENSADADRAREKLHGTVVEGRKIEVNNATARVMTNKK
Strand | RBNS enrichment (R)
CUUCACUGGGUUUCUCAACCGUGGCUUUUCACCGCAGCUUGUCUGAAACUCUUAGCCUGCAGAAUUUAAGACAAUGGCAGUUUUUAUCGUGAUUUGCCUUUGAACUUGGU | 6.31
GCACAGCUCCUUCCUGAGCAGCCUCUCACCACUGCCACAAGGCUCCCUAAUGCUGGUCUCUGCUCCACUCCCCGGCUUCCCGUGAGGCAGGAGGCAGAGCCACAGCCAAG | 0.292
GACCCUGACUCUAAUACCACACAAAACAGAACAAAAAUCCAGCAAAGAUAGGAUCGGAGAUACCUGUAGUCUUCAGACCUUUAGUGCCUGUAUUUAUCCAUCAUUACUGA | 0.575
CUUUGUUACUUAAUGUGCUUUCAGUACAGCAGAUAUGCAAUAUUCACCAAAUAAAUGUAGACUGUGUAAUAUUUAUUGAAUCCCUGUGUGCAAAGGGCUCUGAUAAGAGC | 0.271
CUGAGUGGGGUACGCUAAUUAUACUUUUUGUUGUGGAUAAAAAAUGCUUGUCAAUAGCCUUUUUCUAUCAAGAAAACAAGGAGCUAAUUAUUAAUAACAGUCAUGGCACA | 0.292
GGUGGACAACUGGGGUCCCCCAAAACUCAGUCCUGGCACCUCAACUGUGACAAUCAGCAAAGCCCCACCCAGGCCCCCAUCUGGGAUGAUGGGAGAGCUCUGGCAGAUGU | 0.306
UAUUUAAAAGAAAAGAAAAAAAAGAACCCAACCACACAAAGAACAAAACAAAUAGCCAACAAACAGGAAUUCAGGGUCGCUUUGCUUGCUCUCUGUGCUCUGUGGUGGCU | 0.931
UGUGCAAUUGGAGAAUCUUGCCUUUUUUCUUGGCUCCCCCCAAAAAUACAAACCAACAGAAACUUGUUAUGCACUCAUCAAAAUGUACUAAUGGGUACUCUGAACUCAUU | 0.467
AUCAAUUGUGCUUUAGGAAAUUAUUGACAGUUUUGCACAGGUUCUUGAAAACGUUAUUUAUAAUGAAAUCAACUAAAACUAUUUUUGCUAUAAGUUCUAUAAGGUGCAUA | 0.637
UUCCUUGUUUUAGAGGAAGGUACUGCCUUUUUGGACUUAGGGAUGUCAUGGGACCUCAGUAACGAGGACCCCUAAUUUAUAAAGUACCAGAAAUGUGGGGAAGAAAGCAA | 0.226
CAGCUUCUAAAGACAUUGUCACCGAGUGUGUGUGACUCAAAGAUCAAGAGUGAGGCUAAACUGCGACCCCAACAUCACUUCCUUCAUGGAAAGGUGUUGGCGCUGAUGUA | 0.263
UAUUCCGUAGCAUAUGAUAGCAGAGCAAAUACCGGAUCUGGAUCUAGCUGAUUUCCAUCCAUUGGCUAAUGGCCAACUUCAUGUCCUUGGGUAACUUGCCACCACCCUGG | 0.614

Sample 3
Target: CCNE1, cyclin fold, Cln2 fusion (human)
Method: yeast growth competition, sequencing
Matrix: yeast
Setting: strong parent motif
Baseline: not given
Direction: higher = stronger binding
Starting sequence: RBL2 docking peptide (human); STTRRRLFVENDS; partner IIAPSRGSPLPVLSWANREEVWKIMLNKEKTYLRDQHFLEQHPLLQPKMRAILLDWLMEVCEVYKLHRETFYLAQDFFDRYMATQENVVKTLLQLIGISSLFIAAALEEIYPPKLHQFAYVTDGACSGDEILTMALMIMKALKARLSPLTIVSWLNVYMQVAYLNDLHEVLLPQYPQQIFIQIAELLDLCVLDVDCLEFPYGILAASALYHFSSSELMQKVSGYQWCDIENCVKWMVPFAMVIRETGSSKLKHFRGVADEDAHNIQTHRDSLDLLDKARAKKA
Substitution | normalised enrichment score
STTRRRLFVENDH [S13H] | 5.61
STTRRWLFVENDS [R6W] | 1.25
STTRRRLQVENDS [F8Q] | 0.516
STARRRLFVENDS [T3A] | 6.65
SWTRRRLFVENDS [T2W] | 5.61
STTRRRLFVENDG [S13G] | 5.94
STTRRRLFVENDC [S13C] | 5.49
STTRRRFFVENDS [L7F] | 0.258
STTRRRLFVENMS [D12M] | 3.85
STTRRRLFVENDE [S13E] | 6.75
STTRRNLFVENDS [R6N] | 0.587
STTRRRLFVENQS [D12Q] | 4.58
STTRRRLFVENGS [D12G] | 4.89
STTRVRLFVENDS [R5V] | 0.392
SVTRRRLFVENDS [T2V] | 5.77
STTRRRLFKENDS [V9K] | 3.86
STTRQRLFVENDS [R5Q] | 0.924
STYRRRLFVENDS [T3Y] | 7.54
STTRRRLFVELDS [N11L] | 4.84
STTRRRLFVEWDS [N11W] | 5.17
STTNRRLFVENDS [R4N] | 2.03
STTRRRLFVENDR [S13R] | 5.2
STTRRRLFVEPDS [N11P] | 5.68
STTRRRLFVKNDS [E10K] | 1.58

Sample 4
Target: Sal-like protein 4, full length isoform B (SALL4, Homo sapiens, UniProt Q9UJQ4-2, residues 1-616)
Method: universal PBM
Molecule type: double-stranded DNA, one strand shown
Matrix: in vitro
Tested at: not given
Setting: 8-mer, flanks averaged, mean of replicates
Direction: higher = stronger binding
Target sequence (chain): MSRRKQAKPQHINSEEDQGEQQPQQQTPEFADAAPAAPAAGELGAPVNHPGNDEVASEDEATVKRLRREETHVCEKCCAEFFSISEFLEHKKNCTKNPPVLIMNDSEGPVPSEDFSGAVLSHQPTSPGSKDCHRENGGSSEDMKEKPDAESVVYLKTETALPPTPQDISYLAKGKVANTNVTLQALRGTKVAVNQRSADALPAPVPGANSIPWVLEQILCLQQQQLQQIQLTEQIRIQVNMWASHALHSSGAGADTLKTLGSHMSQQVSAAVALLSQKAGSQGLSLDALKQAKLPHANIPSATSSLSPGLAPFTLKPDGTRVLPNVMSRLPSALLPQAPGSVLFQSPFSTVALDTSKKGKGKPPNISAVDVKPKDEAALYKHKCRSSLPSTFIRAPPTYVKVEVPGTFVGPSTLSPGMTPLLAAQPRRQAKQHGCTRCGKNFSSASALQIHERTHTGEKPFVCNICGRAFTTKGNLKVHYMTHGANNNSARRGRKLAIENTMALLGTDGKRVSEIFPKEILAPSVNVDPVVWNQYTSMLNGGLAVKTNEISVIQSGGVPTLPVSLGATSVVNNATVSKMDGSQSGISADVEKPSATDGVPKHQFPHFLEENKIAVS
Strand | E-score
TGCCGTAA | -0.0528
GTCTGGGA | -0.16
GCAATCCA | 0.026
AGCGGGGC | -0.355
AGAAGGAG | -0.0391
AAAAAAAA | 0.34
AGTATAAT | 0.366
GGGAGACA | -0.254
ATACTAAC | 0.109
GCCTGGTA | -0.164
ACAGATCT | -0.0198
CGGCTTGA | -0.218
CTCGAAGA | -0.0638
ACGCACCC | -0.255
CCAATCTC | 0.103
CATGATTC | -0.0226
ATCGTGAA | 0.0315
GAGTAAGA | 0.129
CTTAACTC | 0.0907
AAACCGCA | -0.271
CCCTCCAC | -0.198
TAACAGTA | 0.161

Sample 5
Target: Prothrombin, mature alpha-thrombin (F2, Homo sapiens, UniProt P00734)
Method: aptamer microarray, sandwich
Molecule type: DNA with 2'F-ANA
Matrix: in vitro
Tested at: 200 nM
Setting: whole 15-mer aptamer, many near background
Together with: Cy3 exosite-II aptamer, 400 nM
Direction: higher = stronger binding
Strand: GGTTGGTGTGGTTGG
Modification | mean fluorescence intensity [a.u.]
2'F-ANA at 2 3 5 7 9 13 15 | 82.2
2'F-ANA at 2 7 8 9 13 | 398
2'F-ANA at 5 11 12 13 14 15 | 48.7
2'F-ANA at 1 4 5 7 10 12 13 14 | 45.1
2'F-ANA at 1 2 4 5 7 8 12 13 14 | 68
2'F-ANA at 3 4 5 7 8 12 13 14 15 | 79.7
2'F-ANA at 1 3 4 5 9 10 12 14 | 46
2'F-ANA at 2 5 6 8 9 11 14 15 | 57.7
2'F-ANA at 2 3 7 10 14 15 | 296
2'F-ANA at 1 2 3 4 7 8 9 11 | 206
2'F-ANA at 1 3 4 6 10 13 15 | 58
2'F-ANA at 1 5 6 9 12 15 | 108
2'F-ANA at 3 5 6 10 12 14 | 51.2
2'F-ANA at 2 3 6 7 10 11 15 | 304
2'F-ANA at 3 5 7 9 13 | 81.5
2'F-ANA at 1 4 6 7 9 10 15 | 81.9
2'F-ANA at 3 4 7 8 10 11 12 15 | 339
2'F-ANA at 1 4 6 7 8 10 11 12 14 15 | 57.8
2'F-ANA at 1 3 5 6 7 11 13 14 | 49.3
2'F-ANA at 3 4 9 15 | 661
2'F-ANA at 1 4 5 6 8 12 13 | 78.3
2'F-ANA at 6 7 9 10 12 13 14 15 | 110
2'F-ANA at 1 6 7 8 12 | 453
2'F-ANA at 1 3 5 6 8 13 | 53

For quick reference, copied from above (sample 3):
Substitution | normalised enrichment score
STARRRLFVENDS [T3A] | 6.65
SWTRRRLFVENDS [T2W] | 5.61
STTRRRLFVENDG [S13G] | 5.94
STTRRRLFVENDC [S13C] | 5.49
STTRRRFFVENDS [L7F] | 0.258
STTRRRLFVENMS [D12M] | 3.85
STTRRRLFVENDE [S13E] | 6.75
STTRRNLFVENDS [R6N] | 0.587
STTRRRLFVENQS [D12Q] | 4.58
STTRRRLFVENGS [D12G] | 4.89
STTRVRLFVENDS [R5V] | 0.392
SVTRRRLFVENDS [T2V] | 5.77
STTRRRLFKENDS [V9K] | 3.86
STTRQRLFVENDS [R5Q] | 0.924
STYRRRLFVENDS [T3Y] | 7.54
STTRRRLFVELDS [N11L] | 4.84
